Assay results of several laboratories.
Lines come from different studies, so protocols differ. ± gives the spread as reported.
FFAR2: Free fatty acid receptor 2 (FFAR2, Homo sapiens, UniProt O15552)
Sequence of UniProt O15552 (whole entry, looked up): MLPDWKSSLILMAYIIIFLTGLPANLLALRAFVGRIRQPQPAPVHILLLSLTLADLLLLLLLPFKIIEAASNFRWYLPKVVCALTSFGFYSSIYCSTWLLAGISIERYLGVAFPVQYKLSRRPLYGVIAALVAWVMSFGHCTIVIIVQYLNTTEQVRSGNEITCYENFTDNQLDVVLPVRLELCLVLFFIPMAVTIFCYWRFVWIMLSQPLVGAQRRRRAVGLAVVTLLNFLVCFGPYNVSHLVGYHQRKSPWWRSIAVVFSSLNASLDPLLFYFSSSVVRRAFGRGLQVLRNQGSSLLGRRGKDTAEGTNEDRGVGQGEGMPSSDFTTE
Sctr: Sctr (Rattus norvegicus, UniProt P23811)
Sequence of UniProt P23811 (whole entry, looked up): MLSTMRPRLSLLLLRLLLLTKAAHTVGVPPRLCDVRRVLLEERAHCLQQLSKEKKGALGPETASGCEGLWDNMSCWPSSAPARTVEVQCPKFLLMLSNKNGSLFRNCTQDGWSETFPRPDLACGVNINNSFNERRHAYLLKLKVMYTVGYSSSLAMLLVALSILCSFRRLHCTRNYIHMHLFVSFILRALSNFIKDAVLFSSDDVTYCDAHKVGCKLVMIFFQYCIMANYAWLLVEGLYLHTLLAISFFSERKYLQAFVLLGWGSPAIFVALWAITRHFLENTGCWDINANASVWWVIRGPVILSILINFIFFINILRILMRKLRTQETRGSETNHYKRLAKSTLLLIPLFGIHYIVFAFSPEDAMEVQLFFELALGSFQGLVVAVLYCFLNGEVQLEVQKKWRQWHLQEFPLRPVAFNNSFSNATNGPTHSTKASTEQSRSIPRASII
GRPR: Gastrin-releasing peptide receptor (GRPR, Homo sapiens, UniProt P30550)
Sequence of UniProt P30550 (whole entry, looked up): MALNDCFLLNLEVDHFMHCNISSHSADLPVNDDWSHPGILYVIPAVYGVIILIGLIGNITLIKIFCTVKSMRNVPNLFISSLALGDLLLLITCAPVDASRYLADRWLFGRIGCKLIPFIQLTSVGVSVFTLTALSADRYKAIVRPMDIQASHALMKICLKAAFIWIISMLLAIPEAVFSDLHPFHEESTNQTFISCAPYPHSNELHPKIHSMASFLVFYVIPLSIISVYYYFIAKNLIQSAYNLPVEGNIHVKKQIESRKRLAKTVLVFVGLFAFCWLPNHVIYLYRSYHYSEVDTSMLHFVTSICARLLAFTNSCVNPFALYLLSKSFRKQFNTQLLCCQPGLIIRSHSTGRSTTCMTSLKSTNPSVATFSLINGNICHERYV
Sequence of UniProt Q60755 (whole entry, looked up): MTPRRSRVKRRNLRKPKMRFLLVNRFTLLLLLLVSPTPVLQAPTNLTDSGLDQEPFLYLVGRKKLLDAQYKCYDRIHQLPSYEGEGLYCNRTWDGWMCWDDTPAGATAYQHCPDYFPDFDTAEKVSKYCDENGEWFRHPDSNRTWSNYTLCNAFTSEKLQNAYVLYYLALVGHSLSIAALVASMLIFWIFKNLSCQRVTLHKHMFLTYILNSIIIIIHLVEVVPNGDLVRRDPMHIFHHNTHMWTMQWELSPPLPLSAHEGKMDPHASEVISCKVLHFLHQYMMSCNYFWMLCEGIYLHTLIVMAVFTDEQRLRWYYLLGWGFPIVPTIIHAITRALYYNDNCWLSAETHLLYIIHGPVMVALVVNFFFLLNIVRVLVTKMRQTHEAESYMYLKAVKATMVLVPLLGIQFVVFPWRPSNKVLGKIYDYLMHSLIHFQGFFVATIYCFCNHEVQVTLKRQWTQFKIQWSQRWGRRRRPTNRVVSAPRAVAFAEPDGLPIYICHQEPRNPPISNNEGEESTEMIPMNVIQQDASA
Sequence of UniProt Q3TBT3 (whole entry, looked up): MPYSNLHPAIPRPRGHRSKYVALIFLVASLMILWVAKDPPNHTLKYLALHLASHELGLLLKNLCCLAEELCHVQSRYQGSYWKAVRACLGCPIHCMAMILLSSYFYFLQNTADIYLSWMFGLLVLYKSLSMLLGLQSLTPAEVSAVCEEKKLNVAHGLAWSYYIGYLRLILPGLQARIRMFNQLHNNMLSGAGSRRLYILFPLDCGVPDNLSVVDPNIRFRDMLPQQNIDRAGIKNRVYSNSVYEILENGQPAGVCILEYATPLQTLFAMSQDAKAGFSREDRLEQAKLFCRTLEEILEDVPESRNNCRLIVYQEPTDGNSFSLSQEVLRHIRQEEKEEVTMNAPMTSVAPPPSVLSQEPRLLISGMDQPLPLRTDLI
Sequence of UniProt Q14011 (whole entry, looked up): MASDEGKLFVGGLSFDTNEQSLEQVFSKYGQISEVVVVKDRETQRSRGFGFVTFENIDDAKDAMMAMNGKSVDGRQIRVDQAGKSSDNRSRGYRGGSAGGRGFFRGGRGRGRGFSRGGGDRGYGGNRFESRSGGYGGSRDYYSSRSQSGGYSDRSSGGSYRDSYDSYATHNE
Sequence of UniProt P29994 (whole entry, looked up): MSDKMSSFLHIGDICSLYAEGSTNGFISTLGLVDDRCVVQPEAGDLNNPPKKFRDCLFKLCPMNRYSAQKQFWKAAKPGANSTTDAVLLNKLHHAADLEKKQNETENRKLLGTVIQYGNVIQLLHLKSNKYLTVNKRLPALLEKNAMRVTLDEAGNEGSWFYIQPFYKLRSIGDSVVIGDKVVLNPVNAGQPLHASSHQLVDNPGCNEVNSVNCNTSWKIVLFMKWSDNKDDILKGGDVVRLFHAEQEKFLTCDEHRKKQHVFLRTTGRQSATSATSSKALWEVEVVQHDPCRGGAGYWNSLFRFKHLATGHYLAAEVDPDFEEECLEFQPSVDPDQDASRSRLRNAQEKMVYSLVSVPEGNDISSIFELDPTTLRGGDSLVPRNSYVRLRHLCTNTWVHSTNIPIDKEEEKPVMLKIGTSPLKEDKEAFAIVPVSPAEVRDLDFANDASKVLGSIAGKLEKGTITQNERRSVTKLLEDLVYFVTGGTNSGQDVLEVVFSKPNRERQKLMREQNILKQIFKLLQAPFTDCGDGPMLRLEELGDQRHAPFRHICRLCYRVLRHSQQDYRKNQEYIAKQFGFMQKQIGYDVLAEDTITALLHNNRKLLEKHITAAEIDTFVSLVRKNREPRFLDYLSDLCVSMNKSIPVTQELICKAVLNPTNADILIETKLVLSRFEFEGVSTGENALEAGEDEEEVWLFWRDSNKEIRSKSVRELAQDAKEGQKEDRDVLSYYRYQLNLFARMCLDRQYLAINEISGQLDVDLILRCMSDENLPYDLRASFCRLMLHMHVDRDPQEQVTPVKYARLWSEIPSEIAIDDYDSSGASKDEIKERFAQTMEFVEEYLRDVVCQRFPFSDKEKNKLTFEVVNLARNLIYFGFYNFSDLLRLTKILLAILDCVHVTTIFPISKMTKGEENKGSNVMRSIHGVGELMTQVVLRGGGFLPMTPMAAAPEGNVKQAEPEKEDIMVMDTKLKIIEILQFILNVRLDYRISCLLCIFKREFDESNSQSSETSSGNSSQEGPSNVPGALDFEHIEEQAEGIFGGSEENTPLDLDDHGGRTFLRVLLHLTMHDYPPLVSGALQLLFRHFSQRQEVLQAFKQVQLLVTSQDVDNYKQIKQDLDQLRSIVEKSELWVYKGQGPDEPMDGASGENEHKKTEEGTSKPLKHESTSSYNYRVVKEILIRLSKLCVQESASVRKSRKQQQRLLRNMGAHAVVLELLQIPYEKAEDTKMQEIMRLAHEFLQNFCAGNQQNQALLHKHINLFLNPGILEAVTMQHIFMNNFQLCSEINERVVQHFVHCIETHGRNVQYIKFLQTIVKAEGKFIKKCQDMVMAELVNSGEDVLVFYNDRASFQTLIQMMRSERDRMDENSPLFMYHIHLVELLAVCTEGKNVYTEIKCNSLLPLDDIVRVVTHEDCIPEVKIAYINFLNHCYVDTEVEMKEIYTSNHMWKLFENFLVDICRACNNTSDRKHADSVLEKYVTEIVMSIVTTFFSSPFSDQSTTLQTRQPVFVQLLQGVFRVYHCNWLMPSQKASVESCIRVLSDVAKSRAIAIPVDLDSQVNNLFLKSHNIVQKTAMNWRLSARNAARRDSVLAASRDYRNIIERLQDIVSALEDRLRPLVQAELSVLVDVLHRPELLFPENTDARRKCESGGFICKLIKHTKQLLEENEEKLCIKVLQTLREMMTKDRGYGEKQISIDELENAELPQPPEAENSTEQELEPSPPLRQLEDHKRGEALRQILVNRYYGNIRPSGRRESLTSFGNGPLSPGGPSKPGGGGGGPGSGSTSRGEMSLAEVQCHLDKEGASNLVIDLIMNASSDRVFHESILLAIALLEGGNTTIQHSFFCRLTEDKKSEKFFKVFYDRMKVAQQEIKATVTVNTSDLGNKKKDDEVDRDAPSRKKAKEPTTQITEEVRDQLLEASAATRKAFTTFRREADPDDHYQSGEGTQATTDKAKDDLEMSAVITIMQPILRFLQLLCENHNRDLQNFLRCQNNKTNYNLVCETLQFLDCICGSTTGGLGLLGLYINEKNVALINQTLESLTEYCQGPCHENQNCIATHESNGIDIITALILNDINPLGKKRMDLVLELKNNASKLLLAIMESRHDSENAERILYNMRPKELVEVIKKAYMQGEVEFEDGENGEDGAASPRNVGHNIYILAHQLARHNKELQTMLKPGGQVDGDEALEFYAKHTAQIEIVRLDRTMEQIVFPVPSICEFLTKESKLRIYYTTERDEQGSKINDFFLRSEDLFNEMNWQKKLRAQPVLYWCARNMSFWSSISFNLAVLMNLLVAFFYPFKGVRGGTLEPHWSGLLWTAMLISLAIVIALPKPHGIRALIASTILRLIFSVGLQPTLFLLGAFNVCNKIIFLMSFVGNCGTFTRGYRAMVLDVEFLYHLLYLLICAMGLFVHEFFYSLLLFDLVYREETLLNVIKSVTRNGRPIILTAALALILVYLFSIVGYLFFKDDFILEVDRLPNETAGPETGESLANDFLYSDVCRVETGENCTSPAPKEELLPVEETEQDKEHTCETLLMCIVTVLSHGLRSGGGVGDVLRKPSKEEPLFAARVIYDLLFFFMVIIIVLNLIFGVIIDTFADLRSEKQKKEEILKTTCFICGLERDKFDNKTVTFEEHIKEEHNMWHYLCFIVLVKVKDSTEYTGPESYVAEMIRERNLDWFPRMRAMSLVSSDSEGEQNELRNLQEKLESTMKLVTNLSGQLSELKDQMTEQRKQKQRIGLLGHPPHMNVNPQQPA

For C/C=C(\C)C(=O)O, the EC50 was 162 µM (FFAR2; agonist).
CC[C@H](C)[C@H](NC(=O)[C@H](Cc1ccccc1)NC(=O)[C@H](CC(=O)O)NC(=O)[C@H](CCCNC(=N)N)NC(=O)[C@H](C)NC(=O)[C@H](C)NC(=O)[C@H](CC(C)C)NC(=O)[C@H](CC(N)=O)NC(=O)[C@H](CC(=O)O)NC(=O)[C@H](CC(C)C)NC(=O)[C@@H](NC(=O)[C@@H](NC(=O)[C@H](CC(N)=O)NC(=O)[C@H](CCSC)NC(=O)[C@H](CCC(=O)O)NC(=O)[C@H](CC(=O)O)NC(=O)[C@H](CO)NC(=O)[C@H](Cc1ccccc1)NC(=O)[C@H](CO)NC(=O)[C@H]1CCC[C@@H]1NC(=O)[C@H](CC(=O)O)NC(=O)[C@H](C)NC(=O)[C@@H](N)Cc1c[nH]cn1)[C@@H](C)O)[C@@H](C)CC)C(=O)N[C@@H](CC(N)=O)C(=O)N[C@@H](Cc1c[nH]c2ccccc12)C(=O)N[C@@H](CC(C)C)C(=O)N[C@H](C(=O)N[C@@H](CCC(N)=O)C(=O)N[C@H](C(=O)N[C@@H](CCCCN)C(=O)N[C@H](C(=O)N[C@H](C(=O)N[C@@H](CC(=O)O)C(N)=O)[C@@H](C)O)[C@@H](C)CC)[C@@H](C)O)[C@@H](C)CC has an EC50 of 0.0018 µM (Glucagon-like peptide 2 receptor (GLP2R, Homo sapiens, UniProt O95838); agonist).
CC(C)C[C@H](NC(=O)CNC(=O)[C@H](CCC(N)=O)NC(=O)[C@H](CC(C)C)NC(=O)[C@H](CC(C)C)NC(=O)[C@H](CCCNC(=N)N)NC(=O)[C@H](CCC(N)=O)NC(=O)[C@H](CC(C)C)NC(=O)[C@H](CCCNC(=N)N)NC(=O)[C@H](C)NC(=O)[C@H](CO)NC(=O)[C@H](CC(=O)O)NC(=O)[C@H](CCC(N)=O)NC(=O)[C@H](C)NC(=O)[C@H](CCCNC(=N)N)NC(=O)[C@H](CO)NC(=O)[C@H](CC(C)C)NC(=O)[C@H](CCC(=O)O)NC(=O)[C@H](CO)NC(=O)[C@@H](NC(=O)[C@H](Cc1ccccc1)NC(=O)[C@@H](NC(=O)CNC(=O)[C@H](CC(=O)O)NC(=O)[C@H](CO)NC(=O)[C@@H](N)Cc1c[nH]cn1)[C@@H](C)O)[C@@H](C)O)C(=O)N[C@H](C(N)=O)C(C)C has an EC50 of 0.0008 ± 0.0002 µM (Sctr; cAMP production, agonist; CHO-SecR; 30 min, 37 °C, added: 1 mM IBMX).
CC#CC(=O)O gave an EC50 of 2090 µM (FFAR2; agonist).
O=C(c1cc2c(s1)CCCCC2)N1CCC(n2c(=O)[nH]c3ccccc32)CC1 gave an EC50 of 2.61 ± 0.26 µM (Short transient receptor potential channel 6 (Trpc6, Mus musculus, UniProt Q61143, V709A); channel activation, agonist, whole-cell patch clamp).
The EC50 of CC(C)C[C@H](NC(=O)CNC(=O)[C@H](C)NC(=O)[C@H](CC(C)C)NC(=O)[C@H](CCCNC(=N)N)NC(=O)[C@H](Cc1cnc[nH]1)NC(=O)[C@@H](NC(=O)[C@@H](NC(=O)[C@@H]1CSSC[C@H](NC(=O)[C@H](C)N)C(=O)N[C@@H](CC(=O)O)C(=O)N[C@@H]([C@@H](C)O)C(=O)N[C@@H](C)C(=O)N[C@@H]([C@@H](C)O)C(=O)N1)C(C)C)[C@@H](C)O)C(=O)N[C@@H](CC(C)C)C(=O)N[C@@H](CO)C(=O)N[C@@H](CCCNC(=N)N)C(=O)N[C@@H](CO)C(=O)NCC(=O)NCC(=O)N[C@H](C(=O)N[C@H](C(=O)N[C@@H](CCCCN)C(=O)N[C@@H](CC(N)=O)C(=O)N[C@@H](CC(N)=O)C(=O)N[C@@H](Cc1ccccc1)C(=O)N[C@H](C(=O)N1CCC[C@H]1C(=O)N[C@H](C(=O)N[C@@H](CC(N)=O)C(=O)N[C@H](C(=O)NCC(=O)N[C@@H](CO)C(=O)N[C@@H](CCCCN)C(=O)N[C@@H](C)C(=O)N[C@@H](Cc1ccccc1)C(N)=O)C(C)C)[C@@H](C)O)C(C)C)C(C)C)C(C)C is reported as 0.0288 µM (Calcitonin receptor (Calcr, Mus musculus, UniProt Q60755); cAMP production, agonist; COS-7 transfected with mouse CTR; 15 min, 37 °C, added: 1 mM IBMX).
CCC(=O)Nc1cccc(CN2C(=O)N(c3c(Cl)c(OC)cc(OC)c3Cl)Cc3cnc(NCCCCN(CC)CC)nc32)c1 has an EC50 of 1.04 µM (FGFR3/Transcription factor ETV6 (Homo sapiens, UniProt P22607+P41212); cell proliferation, MTT; Ba/F3; 48 h).
For COc1ccccc1C(=O)Nc1nc(-c2ccc(C)cc2)c(NC(C)=O)s1, the EC50 was 2.7 µM (CIRBP (Homo sapiens, UniProt Q14011); thermal stabilisation, cellular thermal shift; LOX-IM-VI overexpressing GFP-CIRBP; 3 h, 57 °C).
The EC50 of CCCC[C@H](NC(=O)[C@H](Cc1ccccc1)NC(=O)[C@H](Cc1c[nH]cn1)NC(=O)CCNC(=O)[C@@H](NC(=O)[C@H](C)NC(=O)[C@H](Cc1c[nH]c2ccccc12)NC(=O)[C@H](CC(N)=O)NC(=O)[C@H](N)Cc1ccc(O)cc1)C(C)C)C(N)=O is reported as 0.00069 µM (GRPR; inositol phosphate, agonist).
For CC1(C)C(=O)C(O)=C[C@]2(C)[C@H]3C(=O)C=C4[C@@H]5C[C@@](C)(NC(=O)NCc6ccco6)CC[C@]5(C)CC[C@@]4(C)[C@]3(C)CC[C@@H]12, the EC50 was 7.54 µM (Stimulator of interferon genes protein (Sting1, Mus musculus, UniProt Q3TBT3); agonist).
CC(C)C[C@H](NC(=O)CNC(=O)[C@H](CCC(N)=O)NC(=O)[C@H](CC(C)C)NC(=O)[C@H](CC(C)C)NC(=O)[C@H](CCCNC(=N)N)NC(=O)[C@H](CCC(N)=O)NC(=O)[C@H](CC(C)C)NC(=O)[C@H](CCCNC(=N)N)NC(=O)[C@H](C)NC(=O)[C@H](CO)NC(=O)[C@H](CC(=O)O)NC(=O)[C@H](C)NC(=O)[C@H](CC(C)C)NC(=O)[C@H](CCCNC(=N)N)NC(=O)[C@H](CO)NC(=O)[C@H](CC(C)C)NC(=O)[C@H](CCC(=O)O)NC(=O)[C@H](CO)NC(=O)[C@@H](NC(=O)[C@H](Cc1ccccc1)NC(=O)[C@@H](NC(=O)CNC(=O)[C@H](CC(=O)O)NC(=O)[C@H](CO)NC(=O)[C@@H](N)Cc1c[nH]cn1)[C@@H](C)O)[C@@H](C)O)C(=O)N[C@H](C(N)=O)C(C)C gave an EC50 of 0.0002 ± 7e-05 µM (Sctr; cAMP production, agonist; CHO-SecR; 30 min, 37 °C, added: 1 mM IBMX).
Nc1ncnc2c1ncn2[C@@H]1O[C@H](CO)[C@@H](O[C@H]2O[C@H](CO)[C@@H](OP(=O)(O)O)[C@H](OP(=O)(O)O)[C@H]2O)[C@H]1O gave an EC50 of 0.16 µM (Inositol 1,4,5-trisphosphate-gated calcium channel ITPR1 (Itpr1, Rattus norvegicus, UniProt P29994); calcium signal, agonist).
C/C=C\C(=O)O has an EC50 of 55 µM (FFAR2; inositol phosphate, agonist, TR-FRET).
The EC50 of NCCCC[C@H](NC(=O)[C@@H]1CCCN1C(=O)[C@@H]1CSSC[C@H](N)C(=O)N[C@@H](Cc2ccc(O)cc2)C(=O)N[C@@H](Cc2ccccc2)C(=O)N[C@@H](CCC(N)=O)C(=O)N[C@@H](CC(N)=O)C(=O)N1)C(=O)NCC(N)=O is reported as 1e-05 µM (Vasopressin V2 receptor (AVPR2, Homo sapiens, UniProt P30518); calcium signal, agonist).
CSCC[C@H](NC(=O)[C@H](Cc1ccccc1)NC(=O)[C@H](Cc1c[nH]cn1)NC(=O)CNC(=O)[C@@H](NC(=O)[C@H](C)NC(=O)[C@H](Cc1c[nH]c2ccccc12)NC(=O)[C@H](CC(C)C)NC(=O)[C@@H]1CCC(=O)N1)[C@@H](C)O)C(N)=O gave an EC50 of 0.00708 µM (GRPR; inositol phosphate, agonist).
For CC(C)C[C@H](NC(=O)CNC(=O)[C@H](CCC(N)=O)NC(=O)[C@H](CC(C)C)NC(=O)[C@H](CC(C)C)NC(=O)[C@H](CCCNC(=N)N)NC(=O)[C@H](CCC(N)=O)NC(=O)[C@H](CC(C)C)NC(=O)[C@H](CCCNC(=N)N)NC(=O)[C@H](C)NC(=O)[C@H](CO)NC(=O)[C@H](CC(=O)O)NC(=O)[C@H](CCC(N)=O)NC(=O)[C@H](CC(C)C)NC(=O)[C@H](C)NC(=O)[C@H](CO)NC(=O)[C@H](CC(C)C)NC(=O)[C@H](CCC(=O)O)NC(=O)[C@H](CO)NC(=O)[C@@H](NC(=O)[C@H](Cc1ccccc1)NC(=O)[C@@H](NC(=O)CNC(=O)[C@H](CC(=O)O)NC(=O)[C@H](CO)NC(=O)[C@@H](N)Cc1c[nH]cn1)[C@@H](C)O)[C@@H](C)O)C(=O)N[C@H](C(N)=O)C(C)C, the EC50 was 0.0003 ± 9e-05 µM (Sctr; cAMP production, agonist; CHO-SecR; 30 min, 37 °C, added: 1 mM IBMX).
The EC50 of O=C(O)/C=C/c1cccc(NC(=O)c2cc(-c3ccccc3)ccc2F)c1 is reported as 0.0794 µM (Prostaglandin E2 receptor EP2 subtype (PTGER2, Homo sapiens, UniProt P43116); calcium signal, agonist, fluorescence).
For COc1cc(F)c(C(C)C)cc1C1=C(CN2C(=O)O[C@H](c3cc(C(F)(F)F)cc(C(F)(F)F)c3)[C@@H]2C)CC(C)(C)CC1, the EC50 was 0.0288 µM (Cholesteryl ester transfer protein (Homo sapiens, UniProt P11597); plasma enzyme activity, inhibitor, PK/PD sigmoid Emax model; healthy male human, plasma; oral, single dose 25 to 400 mg).
CC(C)C[C@H](NC(=O)CNC(=O)[C@H](CCC(N)=O)NC(=O)[C@H](CC(C)C)NC(=O)[C@H](CC(C)C)NC(=O)[C@H](CCCNC(=N)N)NC(=O)[C@H](CCC(N)=O)NC(=O)[C@H](CC(C)C)NC(=O)[C@H](CCCNC(=N)N)NC(=O)[C@H](C)NC(=O)[C@H](CO)NC(=O)[C@H](CC(=O)O)NC(=O)[C@H](CCC(N)=O)NC(=O)[C@H](CC(C)C)NC(=O)[C@H](CCCNC(=N)N)NC(=O)[C@H](CO)NC(=O)[C@H](CC(C)C)NC(=O)[C@H](CCC(=O)O)NC(=O)[C@H](CO)NC(=O)[C@H](C)NC(=O)[C@H](Cc1ccccc1)NC(=O)[C@@H](NC(=O)CNC(=O)[C@H](CC(=O)O)NC(=O)[C@H](CO)NC(=O)[C@@H](N)Cc1c[nH]cn1)[C@@H](C)O)C(=O)N[C@H](C(N)=O)C(C)C has an EC50 of 0.009 ± 0.0015 µM (Sctr; cAMP production, agonist; CHO-SecR; 30 min, 37 °C, added: 1 mM IBMX).

Repeated from above:
For C/C=C(\C)C(=O)O, the EC50 was 162 µM (FFAR2; agonist).
O=C(c1cc2c(s1)CCCCC2)N1CCC(n2c(=O)[nH]c3ccccc32)CC1 gave an EC50 of 2.61 ± 0.26 µM (Short transient receptor potential channel 6 (Trpc6, Mus musculus, UniProt Q61143, V709A); channel activation, agonist, whole-cell patch clamp).
